Results from different studies.
Lines come from different studies, so protocols differ. Several values in a cell are separate wells, animals, samples, runs or records. Numbers after ± are the reported error.

SMILES | test | system | conditions | scale | measurement | result
COc1cccc(OC)c1-c1cc(C(=O)NC2(C(=O)O)C3CC4CC(C3)CC2C4)nn1-c1ccc(C(=O)NCCNC(=O)[C@H](CCCCNC(=O)[C@H](CC(C)C)NC(=O)C2OC2C(=O)O)NC(=O)CN2CCN(CC(=O)[O-])CCN(CC(=O)[O-])CCN(CC(=O)[O-])CC2)cc1C(C)C.[177Lu+3] (mixture of isomers) | – | mouse HT-29 xenograft | 4 h, biodistribution | baseline: tumour over small intestine | tumour-to-small intestine ratio | 13.1
O=C(Nc1cnccc1-c1ccc([18F])nc1)c1ccnc(NC(=O)C2CC2)c1 | – | FVB/NJ mouse, both sexes, brain | intravenous, 25 min | – | SUV | 0.076
CC[C@H](C)[C@@H]1NC(=O)[C@H](CCCNC(=N)N)NC(=O)[C@@H](NC(=O)[C@H](CCCCN)NC(=O)[C@H](Cc2c[nH]c3ccccc23)NC(C)=O)CSC=CCCC[C@@H](C(=O)N[C@@H](CCCNC(=N)N)C(=O)N[C@@H](CC(C)C)C(=O)N[C@@H](CC(C)C)C(=O)N[C@@H](CCC(N)=O)C(=O)N[C@@H](CCC(=O)O)C(N)=O)NC(=O)[C@H](CC(C)C)NC1=O | circular dichroism | 10 mM phosphate buffer | pH 7.4, 20 °C | – | helicity | 44%
CN1CC(COc2cccc3c(NCc4ccccc4)cc(Cl)nc23)OC1=O (stereo not shown) | – | C57BL/6 mouse, heart | oral, 30 mg/kg, 0.5 h | baseline: heart over plasma | tissue/plasma ratio | 0.36
Cc1cc(-c2ccc(C(=O)[C@@H]3CCCC[C@H]3C(=O)Nc3cnn4c3C(=O)NCC4)cc2)[nH]n1 | – | human, faeces | oral, 200 mg, 72-96 h | baseline: dose | recovery of radioactivity per interval | 11.3%
CC[C@H](C)[C@@H]1NC(=O)[C@H](Cc2ccc(O)cc2)NC(=O)CCCSC[C@@H](C(=O)N(CC(=O)N[C@@H](CC(C)C)C(=O)NCC(N)=O)Cc2ccc(F)cc2)NC(=O)[C@H](CC(N)=O)NC(=O)[C@H](CCC(N)=O)NC1=O | – | healthy women, plasma | intranasal, 100 µg single dose | – | terminal half-life | 119 min
CCCCN1C(=O)c2cccc3c(NCCCCN4CCOCC4)ccc(c23)C1=O | – | ethylene glycol | – | – | fluorescence lifetime | 8 ns
CCC(CC)n1c(Cc2ccco2)nc2cc(C(=O)N[C@@H](CC(=O)O)c3ccccc3)ccc21 | – | male Sprague-Dawley rat, plasma | intraperitoneal, 10 mg/kg | – | Cmax | 2540 ng/mL
CSCC[C@H](N)C(=O)N[C@@H](CO)C(=O)N[C@H](C(=O)N[C@@H](C)C(=O)NCC(=O)N[C@@H](CC(C)C)C(=O)N[C@@H](CCCCN)C(=O)N[C@@H](CCCCN)C(=O)N[C@@H](CCC(N)=O)C(=O)N[C@@H](Cc1c[nH]c2ccccc12)C(=O)N[C@@H](Cc1c[nH]cn1)C(=O)N[C@@H](CCCCN)C(=O)N[C@@H](C)C(=O)N[C@H](C(=O)N[C@@H](CCC(N)=O)C(=O)N[C@@H](CCCCN)C(=O)N[C@H](C(=O)N[C@@H](CO)C(=O)N[C@@H](CCC(=O)O)C(=O)N[C@@H](CCCCN)C(=O)N[C@H](C(=O)NCC(=O)NCC(=O)N[C@@H](C)C(N)=O)C(C)C)C(C)C)[C@@H](C)O)C(C)C | circular dichroism | 100% DOPS liposomes | 1 mM lipid | – | helical content | 54%
C=CC(=O)Nc1cc(Nc2nccc(-c3c[nH]c4ccccc34)n2)c(OC)cc1N(C)CCN(C)C | storage stability | human plasma | 10 d, -80 °C, LLOQ level | – | recovery | 101%
O=C(Nc1cnccc1-c1ccc([18F])cc1)c1ccnc(NC(=O)C2CC2)c1 | – | FVB/NJ mice, both sexes, brain | intravenous, 50 min, median, P-gp inhibitor pretreatment, together with: tariquidar 15 mg/kg iv | – | SUV | 0.37
C=C[C@]1(C)C[C@@H](OC(=O)CSc2ccc(NC(=O)c3ccco3)cc2)[C@]2(C)[C@H](C)CC[C@]3(CCC(=O)[C@H]32)[C@@H](C)[C@@H]1O | – | Mycoplasma gallisepticum-infected chickens, plasma | intramuscular, 40 mg/kg, 4 h | – | plasma concentration | 458 ng/mL and 506 ng/mL and 352 ng/mL and 240 ng/mL and 176 ng/mL and 523 ng/mL and 247 ng/mL and 266 ng/mL
CCCCC/C=C\CCCO[Si](CCCCN(C)CCO)(OCCC/C=C\CCCCC)OCCC/C=C\CCCCC | – | – | pH 7.5, formulated | – | zeta potential | 0.03 mV
O=c1c(O)c(-c2ccc(N(c3ccccc3)c3ccccc3)cc2)oc2cc3ccccc3cc12 | – | DMSO | – | – | CO release quantum yield | ~0.6%
O=C([O-])CN1CCN(CC(=O)[O-])CCN(CC(CCCc2ccccc2[N+](=O)[O-])N(CC(=O)[O-])CC(=O)[O-])CC1.[90Y+3] (stereo not shown) | HPLC | human serum | 48 h, pH 7, 37 °C | – | intact radiolabelled complex | 100%
C/C(N)=N/C(=N\S(=O)(=O)c1ccc(C(F)(F)F)cc1)N1C[C@H](c2ccccc2)C(c2ccc(Cl)cc2)=N1 | – | C57BL/6 mouse, liver | intravenous, 10 mg/kg | – | Tmax | 12 min
C=CC[C@@H]1/C=C(\C)C[C@H](C)C[C@H](OC)[C@H]2O[C@@](O)(C(=O)C(=O)N3CCCC[C@H]3C(=O)O[C@H](/C(C)=C/[C@@H]3CC[C@@H](O)[C@H](OC)C3)[C@H](C)[C@@H](O)CC1=O)[C@H](C)C[C@@H]2OC | – | kidney transplant recipients, CYP3A5 *3/*3, whole blood | oral, dose not given, early and late phases, limited sampling | – | dose-normalized AUC(0-12h) | 151 ng·h/mL

SMILES | test | system | conditions | scale | measurement | result
CC(C)(O)c1ncc([S@](N)(=O)=NC(=O)Nc2c3c(cc4c2CCC4)CCC3)s1 | – | human plasma | -20 °C or below | – | storage stability | ≥ 269 days
CCC(C(=O)Nc1ccc(C(N)=O)c(F)c1)n1cc(OC)c(-c2cc(Cl)ccc2-n2cc(C(F)(F)F)nn2)cc1=O (stereo not shown) | – | male humans | oral, 25 mg, fasted | – | subjects with moderate adverse event | 0%
O=C(Nc1ccccc1)C1(C(F)(F)F)CCC1 | – | PBS | 2 h, pH 7.4, 25 °C, 2% DMSO | – | solubility | 403 µM
CN([O-])C(=O)CN1CCN(CC(=O)N(C)[O-])CCN(Cc2ccccn2)CC1.[89Zr+4] | – | mouse, spleen | intravenous, 1 h | – | tracer uptake | 0.56 %ID/g
COc1cccc(OC)c1-c1cc(C(=O)NC2(C(=O)O)C3CC4CC(C3)CC2C4)nn1-c1ccc(C(=O)N(C)CCCN(C)C(=O)[C@H](CCCCNC(=O)[C@H](CC(C)C)NC(=O)C2OC2C(=O)O)NC(=O)CN2CCN(CC(=O)[O-])CCN(CC(=O)[O-])CCN(CC(=O)[O-])CC2)cc1C(C)C.[177Lu+3] (mixture of isomers) | – | mouse HT-29 xenograft | 24 h, biodistribution | baseline: tumour over large intestine | tumour-to-large intestine ratio | 10.5
CC(=O)N([O-])CCCCCNC(=O)CCC(=O)N([O-])CCCCCNC(=O)CCC(=O)N([O-])CCCCCN.[89Zr+4] | – | mouse, lung | 4 h | – | tracer uptake | 0.17 %ID/g
COc1cccc(OC)c1-c1cc(C(=O)NC2(C(=O)O)C3CC4CC(C3)CC2C4)nn1-c1ccc(C(=O)N(C)CCOCCOCCN(C)C(=O)[C@H](CCCCNC(=O)[C@H](CC(C)C)NC(=O)C2OC2C(=O)O)NC(=O)CN2CCN(CC(=O)[O-])CCN(CC(=O)[O-])CCN(CC(=O)[O-])CC2)cc1C(C)C.[177Lu+3] (mixture of isomers) | – | mouse HT-29 xenograft | 168 h, biodistribution | baseline: tumour over small intestine | tumour-to-small intestine ratio | 18.1
C=CC(=O)Nc1cc(Nc2nccc(-c3cn(C)c4ccccc34)n2)c(OC)cc1N(C)CCNC | storage stability | human dried blood spots | 72 h, -80 °C, medium QC level | – | recovery | 90.3%
CCCCC/C=C\CCCO[Si](CCCCN1CCCCC1)(OCCC/C=C\CCCCC)OCCC/C=C\CCCCC | – | – | pH 7.5, formulated | – | zeta potential | -0.14 mV
CCCC[C@H](NC(=O)CNC(=O)CNC(=O)[C@H](CCCCNC(=O)[C@H](CC(=O)O)NC(=O)C(C)c1ccc(CC(C)C)cc1)NC(=O)CN1CCN(CC(=O)O)CCN(CC(=O)O)CCN(CC(=O)O)CC1)C(=O)N[C@H]1CC(=O)NCCCC[C@@H](C(N)=O)NC(=O)[C@H](Cc2c[nH]c3ccccc23)NC(=O)[C@H](CCCNC(=N)N)NC(=O)[C@@H](Cc2ccccc2)NC(=O)[C@H](Cc2c[nH]cn2)NC1=O (stereo partly shown) [lutetium-177 labelled] | – | C57 mice, tumour-bearing, blood | intravenous, 0.037 MBq, 24 h | – | tissue uptake | 0.09 ± 0.02 %ID/g
CC(C)C[C@@H]1NC(=O)[C@H](C(C)C)NC(=O)[C@H](Cc2c[nH]c3ccccc23)NC(=O)[C@@H]2CSSC[C@H](NC(=O)[C@H](Cc3ccc(O)cc3)NC(=O)[C@H](C(C)C)NC(=O)[C@H](CCCNC(=N)N)NC(=O)CNC(=O)[C@H]3CCCN3C1=O)C(=O)N[C@@H](CCC(N)=O)C(=O)N1CCC[C@H]1C(=O)NCC(=O)N[C@@H](Cc1c[nH]c3ccccc13)C(=O)N2 | – | Caco-2 | – | – | Papp B→A | 10.5 ×10⁻⁶ cm/s
CCCCCCCCCCCCCCCC(=O)N[C@@H](CCCCN)C(=O)N[C@@H](CCCCN)C(=O)N[C@@H](CO)C(=O)N[C@@H](CCCNC(=N)N)C(=O)N[C@@H](C)C(=O)N[C@@H](CC(C)C)C(=O)N[C@@H](Cc1ccccc1)C(N)=O | – | human patients, plasma | intravenous, 0.3 mg/kg over 2 h | – | clearance | 130 mL/min
Cc1ccc(CN2C(=O)/C(=N\c3ccc(Cl)cc3Br)c3ccccc32)cc1 | – | mouse, blood | 150 mg/kg | – | Lym% | 56.9 ± 5.46%
O=c1c2ccccc2[se]n1CCCCCCn1[se]c2ccccc2c1=O | shake-flask, RP-HPLC | ethyl acetate | 24 h, 25 °C | – | solubility | 240 ± 20 µg/mL
O=C(c1ccccc1)N1C(c2ccc(OCC3CCN(CCCF)C3)cc2)c2ccc(O)cc2CC12CC2 (stereo not shown) | – | C57BL/6J mice, plasma | intraperitoneal, 25 mg/kg | – | AUC extrapolated percentage | 0.353% and 0.349%
COc1cccc(OC)c1-c1cc(C(=O)NC2(C(=O)O)C3CC4CC(C3)CC2C4)nn1-c1ccc(C(=O)N(C)CCOCCN(C)C(=O)[C@H](CCCCNC(=O)[C@H](CC(C)C)NC(=O)C2OC2C(=O)O)NC(=O)CN2CCN(CC(=O)[O-])CCN(CC(=O)[O-])CCN(CC(=O)[O-])CC2)cc1C(C)C.[177Lu+3] (mixture of isomers) | – | mouse, HT-29 xenograft | 72 h post injection, biodistribution | baseline: tumour over lung uptake | tumour-to-lung ratio | 8.67
C=C(NC(=O)c1csc(-c2nc3c(cc2O)-c2nc(cs2)C(=O)NC(C(C)O)C(=O)NC(=C(C)OC)c2nc(cs2)C(=O)NC2c4nc(cs4)C(=O)NC(COC(=O)c4c5c6c(cccc6n4O)COC(=O)C(OC4CC(C)(O)C(N(C)C)C(C)O4)C2OC5)c2nc-3cs2)n1)C(N)=O (stereo not shown) | – | cynomolgus monkey, both sexes, plasma | intravenous infusion, 1.5 mg/kg twice daily, 0 to 6 h, first dose | – | half-life | 54.6 ± 4.2 min

Repeated from above:
SMILES | test | system | conditions | scale | measurement | result
CCCC[C@H](NC(=O)CNC(=O)CNC(=O)[C@H](CCCCNC(=O)[C@H](CC(=O)O)NC(=O)C(C)c1ccc(CC(C)C)cc1)NC(=O)CN1CCN(CC(=O)O)CCN(CC(=O)O)CCN(CC(=O)O)CC1)C(=O)N[C@H]1CC(=O)NCCCC[C@@H](C(N)=O)NC(=O)[C@H](Cc2c[nH]c3ccccc23)NC(=O)[C@H](CCCNC(=N)N)NC(=O)[C@@H](Cc2ccccc2)NC(=O)[C@H](Cc2c[nH]cn2)NC1=O (stereo partly shown) [lutetium-177 labelled] | – | C57 mice, tumour-bearing, blood | intravenous, 0.037 MBq, 24 h | – | tissue uptake | 0.09 ± 0.02 %ID/g
CC(C)(O)c1ncc([S@](N)(=O)=NC(=O)Nc2c3c(cc4c2CCC4)CCC3)s1 | – | human plasma | -20 °C or below | – | storage stability | ≥ 269 days
